Published values collected from several papers.
Every numbered part comes from another study and shows a few of its results, in no order. Substitutions count along the parent as printed.

Study 1 — method: RNA Bind-n-Seq; molecule type: RNA; matrix: in vitro; tested at: 365 nM; relative to: no-protein control; direction: higher = stronger binding
Target: RNA binding protein fox-1 homolog 2, RRM domain, GST-SBP tag (RBFOX2, Homo sapiens, UniProt O43251-10, residues 100-194)
Notes: natural RNA segment, single round, ends assumed
All sequences stand within: GGGAGUUCUACAGUCCGACGAUC … UGGAAUUCUCGGGUGCCAA
Target sequence (chain): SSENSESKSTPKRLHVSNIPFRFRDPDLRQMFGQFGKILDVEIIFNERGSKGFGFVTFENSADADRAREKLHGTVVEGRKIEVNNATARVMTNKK
Oligonucleotide | RBNS enrichment (R)
GUUGUGUUAAUAUUUAGAAGAAGAUGUAUAUCUUCCAGAUUUUGUUAUAUAUUUGGCAUAAAAUACGGCUUACGUUGCUUAAGAUUCUCAGGGAUAAACUUCCUUUUGCU | 0.684
CUUUGCGGAUGACCUCAUUUUGAUGUUAAAAAAAAACUGAUUUUUUUAAUAUGUGGACGCUGCAAAAAAUGUGUUUAAAUUAUCUUUUUUAAGAUGAAUUAAGGACUAUU | 0.383
GGGAAGCUUUUCCUCUCUCUAAUUAGCUUUCCCAGUAUACUUCUUAGAAAGUCCAAGUGUUCAGGACUUUUAUACCUGUUAUACUUUGGCUUGGUUUCCAUGAUUCUUAC | 0.354
UGUAACUUGCAAAAUGCAUAAACAUCCGACAGUUUGAAUUAAUAGUGUUGAUGGAAGAAAUCAUUUUUAAUGUGUACUGUAAAACUUGAAAUACUCAGGAGCUGAGUGAG | 0.594
UUGCACUUAUGAACAAGGAACCUUCUUUUCAAUUUCUGUGUAAUUUGCAAGGCUGUACAAUGUGUGCUGAUGCAAGCCUUUUUCAGUUCAAGAGAAUAAAUGUUUACAAA | 0.791
AUCAAGGUUCUUCAAGGGGUCUUUCUCCCUCUGAGAUAUUCAAGGCAAAUGUCUGGAUGUCGCAUUUCCUCACCCCCCACCUCAUGAAUCCUACUUCUCCCCAACAUAGA | 0.439
CUCUUACUUCACUGUGGAGGGACUUCGAGCAUCAGGUGGCUCUCUCAUGUUCCUGCCCCCUUUACUCCAUGCCAAACCUGGGAUUAGACAGCCUGCUGGCUCCAGAAAAA | 0.278
GUUUUAUUUAACCAUGGGGUAGGCUGGGGUGAUGUUUCAGUUUUCAAGGGACAGAAGCAAGACAAAAUGCAUGGGCCCUUGUGUUCCUAAUGGUCUUAACUGAAGUCCAA | 1.8
AUCACACAAGAAGAGACAACUUCACUUUGAACAUUAGAUCCACUCAAGAUUAGUCCACGAAUGAUCCCCACCUCUUCUGCACAGGAUCCGUGGUCGUGACCCCACUGGCU | 0.276
AAGAAAAGGACACAGAAAGGCGAACGGAAGCGAUAACCUUGGCCCACUCUGCUCCUUCCACCCAUGAAUUGUGUGUCUGUGUAUUUAAGAGAACUGAGACUAAUGUAUUU | 0.63
AUAGUUUUAAAAUUAAUCUUUGCAUGAAGGUUGGUUUCGCUUUUUUUCCUUUAAGUUUGUUUUUAAAUGUAUUAGUCCAGGGGAUUUUGCCUUAUGCUGAGGUCAAACUA | 29.9
AAACAACACGCUCUCCUUCAGACAAUGAGGCAUUCUGUCCUCCUGCUGCCAUUCUUCAUCUCCACUGAGAGCCAGAGCUGGUAGGAGCCGAGUGCCACAGGCAUUCUGCA | 0.607

Study 2 — method: protein-binding microarray; molecule type: double-stranded DNA, one strand shown; matrix: in vitro; tested at: 2540 nM top; notes: 60-bp whole probe; with: salmon DNA 0.4 mg/ml; relative to: random background probes; direction: higher = stronger binding; all sequences stand within: GCCTAGCAC … GTCTTGATTCGCTTGACGCTGCTG
Target: Interferon regulatory factor 3, full length, phosphomimetic (IRF3, Homo sapiens, UniProt Q14653, residues 1-427, S386D/S396D/S398D/S402D/T404D/S405D)
Construct (chain): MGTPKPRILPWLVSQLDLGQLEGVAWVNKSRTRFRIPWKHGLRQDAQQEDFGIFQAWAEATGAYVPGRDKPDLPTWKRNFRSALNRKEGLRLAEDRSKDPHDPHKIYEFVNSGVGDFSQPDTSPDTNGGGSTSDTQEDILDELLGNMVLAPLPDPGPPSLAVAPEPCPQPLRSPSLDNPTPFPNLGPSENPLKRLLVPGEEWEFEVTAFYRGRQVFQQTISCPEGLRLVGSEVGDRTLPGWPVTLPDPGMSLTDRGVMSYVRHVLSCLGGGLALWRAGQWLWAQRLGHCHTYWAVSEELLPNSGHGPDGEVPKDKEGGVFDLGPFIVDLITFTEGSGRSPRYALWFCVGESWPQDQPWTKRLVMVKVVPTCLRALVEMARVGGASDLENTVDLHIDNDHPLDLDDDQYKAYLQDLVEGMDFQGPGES
Oligonucleotide | fitted relative affinity [z-score]
GCTAGTTCAGTTCTCTAGAAGTGCTAG | 1.16
TCATGCCTATTTTTCACACTGTGCTAG | 0.29
GTCGGTCTCCTTTTCCTGACGTGCTAG | 5.71
GACGGTTTCGGGTATCAGGACGTGCTA | 4.75
TCATTATTCTAGCCTCCAACTGTGCTA | 0.692
GACGATTTCAGTTTAGAGACGTGCTAG | 2.81
TCACTTTTTTTTTTCCCACTGTGCTAG | 2.08
GACGAACTGAAACTGGAGACGTGCTAG | 0.807
GACGGTATCCGTTTCGGGACGTGCTAG | 6.84
GACGATCTCCGTTTCGAGACGTGCTAG | 2.64
CTCTCTTTCCACTTGTCTTTGTGCTAG | 2.3
GACTGTTTCGACTATCGGGACGTGCTA | 2.43
GACGGTTTCCTTTCCCTGTCGTGCTAG | 10.6
CTTGCTTCCTAATTCTCTTTGTGCTAG | 1.11
TCACCTTTATGTCCTGTACTGTGCTAG | 1.51
ATAGGACTGGACTATCGGTTAGTGCTA | -0.242
ACTTCATTGCATATAGAAAAGTGCTAG | 0.395
GACGATTTTAGTTCCGAGACGTGCTAG | 1.54
TTAGGTTTCGGGTTTCGGGTAGTGCTA | 5.89
GACGGTATCGATTTCGGGACGTGCTAG | 4.01
TTAGATTTCAGAATGGATTAGTGCTAG | 1.61
TTAGATTTCAGTCTCGACTAGTGCTAG | 2.12
GACGGACTGTGTTTCGGGACGTGCTAG | 1.04
GACTGACTGGACACTGGGGACGTGCTA | -0.678
GACGATCTCAGTATGGAGACGTGCTAG | 0.481

Study 3 — method: universal PBM; molecule type: double-stranded DNA, one strand shown; matrix: in vitro; tested at: 600 nM; direction: higher = stronger binding
Target: Sal-like protein 4, full length isoform A (SALL4, Homo sapiens, UniProt Q9UJQ4, residues 1-1053)
UniProt Q9UJQ4, sequence (whole entry, looked up): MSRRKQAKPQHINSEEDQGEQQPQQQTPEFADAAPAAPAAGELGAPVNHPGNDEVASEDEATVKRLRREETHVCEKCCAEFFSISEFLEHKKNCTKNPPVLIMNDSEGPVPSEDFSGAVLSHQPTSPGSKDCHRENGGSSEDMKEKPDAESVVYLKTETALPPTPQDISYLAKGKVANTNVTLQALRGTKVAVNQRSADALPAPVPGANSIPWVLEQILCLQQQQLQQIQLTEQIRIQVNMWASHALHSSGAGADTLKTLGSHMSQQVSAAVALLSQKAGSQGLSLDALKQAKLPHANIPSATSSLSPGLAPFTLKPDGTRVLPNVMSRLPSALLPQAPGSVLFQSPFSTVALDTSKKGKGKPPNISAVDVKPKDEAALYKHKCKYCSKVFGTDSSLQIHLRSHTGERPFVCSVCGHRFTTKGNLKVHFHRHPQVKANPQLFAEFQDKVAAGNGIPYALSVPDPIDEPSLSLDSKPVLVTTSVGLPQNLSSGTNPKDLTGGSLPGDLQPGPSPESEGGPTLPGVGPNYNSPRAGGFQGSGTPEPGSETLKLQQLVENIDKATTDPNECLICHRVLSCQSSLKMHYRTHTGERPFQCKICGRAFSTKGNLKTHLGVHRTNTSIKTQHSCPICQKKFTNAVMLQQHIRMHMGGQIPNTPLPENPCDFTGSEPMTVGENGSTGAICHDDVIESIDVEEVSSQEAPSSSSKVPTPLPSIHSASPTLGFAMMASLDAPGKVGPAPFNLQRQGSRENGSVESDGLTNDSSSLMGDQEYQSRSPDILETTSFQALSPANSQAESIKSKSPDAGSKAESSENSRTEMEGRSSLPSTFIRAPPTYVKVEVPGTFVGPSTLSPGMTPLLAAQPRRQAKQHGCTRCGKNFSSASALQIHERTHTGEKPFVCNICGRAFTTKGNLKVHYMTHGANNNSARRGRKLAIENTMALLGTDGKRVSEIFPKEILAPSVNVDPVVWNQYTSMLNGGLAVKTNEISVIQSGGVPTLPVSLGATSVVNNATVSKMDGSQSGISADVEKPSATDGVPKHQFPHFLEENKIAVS
Notes: 8-mer, flanks averaged, mean of replicates
Oligonucleotide | E-score
GAGTCTCA | -0.0565
ACCCTTTG | -0.168
CGGCGAGC | -0.339
AATTCCTA | 0.157
CTCCCACC | -0.24
ACGGGCAT | -0.143
GCGTCTCA | -0.242
AGAACCAC | -0.0488
GAATTTCC | 0.0932
TCCTTTCA | 0.108
CCATTACA | 0.279
AAACCCCA | -0.0415
ATTTTCTC | 0.0655
AACGTGGA | -0.122
CGGTACGC | -0.192
CCGGGCCG | -0.436
ATTAACGC | 0.148
AATGGGTA | 0.174
CAAAGATG | 0.0901
AGGCTGAG | -0.203
AAGCTCTC | -0.0998
AAACGAAC | 0.106
GCCGCACC | -0.295
GATGACGC | -0.151
AAGGAAGG | -0.00134

Study 4 — target: CCNF, cyclin fold, Cln2 fusion (human); method: yeast growth competition, sequencing; matrix: yeast; notes: strong parent motif; relative to: not given; direction: higher = stronger binding
Parent: PKN2 docking peptide (human); VSAVRKLDFSDTM; partner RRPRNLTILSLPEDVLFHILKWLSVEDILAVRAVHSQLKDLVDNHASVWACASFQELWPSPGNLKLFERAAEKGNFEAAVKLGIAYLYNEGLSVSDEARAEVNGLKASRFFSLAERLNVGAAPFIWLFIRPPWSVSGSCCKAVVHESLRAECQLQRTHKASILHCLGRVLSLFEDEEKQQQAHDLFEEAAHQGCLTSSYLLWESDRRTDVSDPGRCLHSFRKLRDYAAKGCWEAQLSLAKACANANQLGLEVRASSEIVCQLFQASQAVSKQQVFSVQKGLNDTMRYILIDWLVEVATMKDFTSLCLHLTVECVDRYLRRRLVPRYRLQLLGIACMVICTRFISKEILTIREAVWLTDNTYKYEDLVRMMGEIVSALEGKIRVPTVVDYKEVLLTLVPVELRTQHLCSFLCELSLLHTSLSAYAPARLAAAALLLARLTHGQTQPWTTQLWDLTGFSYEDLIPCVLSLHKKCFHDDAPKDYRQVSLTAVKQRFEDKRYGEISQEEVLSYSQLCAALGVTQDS
Variant | normalised enrichment score
S10V | 6.49
D8K | 8.29
L7W | -0.0494
D8F | 8.71
S10M | 7.25
S10R | 7.51
D11H | 7.02
F9G | 0.238
S2Y | 6.91
S2Q | 7.41
K6Y | 6.66
R5A | 0.765
D8C | 8.29
S2I | 7.38
V4L | 6.29
T12G | 6.03
K6M | 6.75
T12E | 6.67
F9E | -0.335
A3L | 6.62
L7Q | -0.19
T12M | 6.86
D11W | 7.82
L7Y | -0.0697
V4C | 7.04

Study 5 — method: competition protein-binding microarray; molecule type: double-stranded DNA, one strand shown; matrix: in vitro; tested at: 2 µM; with: Pho4 competitor, 0.05 µM; direction: higher = stronger binding; all sequences stand within: … GTCTTGATTCGCTTGACGCTGCTG
Target: Centromere-binding protein 1, full length, His-tagged (CBF1, Saccharomyces cerevisiae, UniProt P17106, residues 1-351)
UniProt P17106, sequence (whole entry, looked up): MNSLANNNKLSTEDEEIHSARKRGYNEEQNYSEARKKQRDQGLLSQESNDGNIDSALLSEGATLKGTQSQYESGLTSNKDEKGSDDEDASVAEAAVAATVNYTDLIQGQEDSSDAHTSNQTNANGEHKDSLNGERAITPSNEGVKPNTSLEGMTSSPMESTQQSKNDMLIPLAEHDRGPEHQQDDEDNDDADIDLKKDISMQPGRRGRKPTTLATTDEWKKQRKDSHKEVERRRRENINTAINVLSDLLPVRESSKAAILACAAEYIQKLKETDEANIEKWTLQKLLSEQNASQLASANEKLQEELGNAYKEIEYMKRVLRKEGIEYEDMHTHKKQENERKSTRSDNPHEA
Notes: whole 60-bp probe, lowest competitor level
Oligonucleotide | fluorescence intensity [a.u.]
TTTTGAGGGGAATTGATTACATTTCCTTTTTTTTTC | 84.3
GAAGTTACCATTACCTGCATGACAAACAATGGCGTT | 86.8
TTGGAGTGGAACCCTCCCGTGTGGAAAACATATTTT | 59.8
TGCTATTGATATTACGACATGTGTGCTTCTCATGAT | 158
GTTGGCGAGGAAGATCGCGTGCGGACTAATTTTGAA | 113
AAATTACTAAGTTGTGTGGTGGGTGACGCCGTATGA | 66.2
AACAAGAGGTTTCGTCACAATTGCTAGGCGGTGCCA | 58.2
ACATCCTGCGAATCTCATGTGTGTACTGAATCCATC | 93.1
CAGTTGCGACAGCAGCTCGTGTGAAGGTCGCTGGCG | 47.5
CGGGGTTAAGTTTGGTTTGTGGGTGGCTTGCAGCAG | 80.3
AGCAGAATTACCCTCCACGTTGATTGTCTGCGAGGC | 73.7
TCCTCTCTGGACGGCATCGTGTCGGACGACGCCGCA | 54.7
AAGAAGCTAATTTTGCACGTAAACAACAATCTATAC | 71.6
GTCTTGTCTCATTTTCACGTGCATTTCCCCACTTCA | 866
CGGTCAGCCAACTGGCACGTGGTGAGTGTGCCTGGA | 1300
CTTTTGATACTCAAATTCGTGCCGAACCGGGAAAGA | 76.9

Study 6 — method: protein binding microarray; molecule type: double-stranded DNA, one strand shown; matrix: in vitro; tested at: not given; relative to: not given; direction: higher = stronger binding
Target: Histone acetyltransferase KAT6A, winged helix 2, GST fusion (KAT6A, Homo sapiens, UniProt Q92794, residues 85-181)
Notes: 8-mer, flanks averaged, mean of 2 arrays, mostly near background
Residues (chain): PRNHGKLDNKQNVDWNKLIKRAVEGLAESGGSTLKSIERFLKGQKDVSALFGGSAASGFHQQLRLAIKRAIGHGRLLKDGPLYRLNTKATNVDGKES
Oligonucleotide | E-score
CGCCTGTA | -0.0226
TGACGAAA | 0.191
CGAATCTA | -0.0668
CCGCGGCC | 0.316
CGCCGGGC | 0.239
CTTGCTCC | 0.00615
ATTGGCTA | -0.0689
ACGCGCGA | 0.104
ATTAGCAG | 0.0691
CACATGGG | -0.173
CGCGGCTC | 0.0146
GTATTAAA | 0.151
GCCGGCTA | 0.0851
GAGAGAGC | 0.00534
GCGCGACA | 0.0884
ACCGTTTG | -0.0589
AACCGGCA | 0.0551
ACAGCCCT | -0.168
AACTTTCG | -0.101
CGGAGCGA | 0.286
GATGTAAA | 0.00381
AAAGCGGC | 0.186
TTGTACAA | -0.0443
GGCCACTA | -0.0596
GAAATAGC | 0.0277

For quick reference, copied from above (study 4):
Variant | normalised enrichment score
K6M | 6.75
V4C | 7.04
S10V | 6.49
A3L | 6.62
D8C | 8.29
V4L | 6.29
D8K | 8.29
S2Y | 6.91
R5A | 0.765
K6Y | 6.66
D8F | 8.71
L7W | -0.0494
D11W | 7.82
